Measurements collected from several papers.
Every numbered part comes from another study and shows a few of its results, in no order.

Block 1
Target: Histone acetyltransferase KAT6A, winged helix 2, GST fusion (KAT6A, Homo sapiens, UniProt Q92794, residues 85-181)
Technique: protein binding microarray
Form: double-stranded DNA, one strand shown
Sample: in vitro
Concentration: not given
Notes: 8-mer, flanks averaged, mean of 2 arrays, mostly near background
Reference: not given
Reading: higher = stronger binding
Target sequence (chain): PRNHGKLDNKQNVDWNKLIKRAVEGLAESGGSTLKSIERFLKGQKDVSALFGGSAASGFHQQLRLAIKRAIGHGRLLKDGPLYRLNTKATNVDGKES
| Strand | E-score |
| --- | --- |
| CCATTCAG | -0.0899 |
| CCGTAGCC | -0.0491 |
| TCTACGAA | -0.0907 |
| AGAAAAAT | 0.19 |

Block 2
Target: Protein max, full length (MAX, Homo sapiens, UniProt P61244-2, residues 1-151)
Technique: protein-binding microarray
Form: double-stranded DNA, one strand shown
Sample: in vitro
Concentration: not given
Notes: k-mer, scored over probes, only values ≥0.25
Reading: higher = stronger binding
| Strand | E-score |
| --- | --- |
| CTCATGTC | 0.33 |
| ATGCACAT | 0.36 |
| CATGGAGG | 0.305 |

Block 3
Target: Interferon regulatory factor 5, full length, phosphomimetic (IRF5, Homo sapiens, UniProt Q13568-2, residues 1-514, K96S/S451D/S453D/S456D/S462D)
Technique: protein-binding microarray
Form: double-stranded DNA, one strand shown
Sample: in vitro
Concentration: 250 nM
Notes: 60-bp whole probe
Added: salmon DNA 0.4 mg/ml
Reference: random background probes
Reading: higher = stronger binding
| Strand | log fluorescence |
| --- | --- |
| GCCTAGCACTTTGGTTTGTACACCGCCTTGTGCTAGGTCTTGATTCGCTTGACGCTGCTG | 0.136 z-score |
| GCCTAGCACTCACCTGTCTACATGGGACTGTGCTAGGTCTTGATTCGCTTGACGCTGCTG | -0.135 z-score |
| GCCTAGCACTCAAATTTGAGTCACTGACTGTGCTAGGTCTTGATTCGCTTGACGCTGCTG | -0.167 z-score |
| GCCTAGCACTTAGGTTCCCTTTTCCCTTAGTGCTAGGTCTTGATTCGCTTGACGCTGCTG | 0.395 z-score |

Other studies, line by line
| Molecule | target | test | test system | conditions | scale | measurement | result |
| --- | --- | --- | --- | --- | --- | --- | --- |
| PhoQ, residues 284 288 289 292 302 303 SIHLQL | PhoP, residues 12 14 15 18 19 FWNTL (Escherichia coli, UniProt P23836) | Sort-seq, refers to: YFP reporter | E. coli | PhoQ-PhoP variant library, added: 10 µM Mg2+ | reference: high Mg2+ state, higher = stronger signaling | fold induction | 14.3 |

Repeated from above (block 2):
| Strand | E-score |
| --- | --- |
| CTCATGTC | 0.33 |
